Experimental data gathered from unrelated publications.
Protocols differ between the studies behind these lines. “And” joins repeats or separate records; there may be more than shown. ± gives the spread as reported.
HTR2A: 5-hydroxytryptamine receptor 2A (HTR2A, Homo sapiens, UniProt P28223)
HTR7: 5-hydroxytryptamine receptor 7 (HTR7, Homo sapiens, UniProt P34969)
NEK6: Serine/threonine-protein kinase Nek6 (NEK6, Homo sapiens, UniProt Q9HC98)
BIRC3 BIR1 domain: Baculoviral IAP repeat-containing protein 3, BIR1 domain (BIRC3, Homo sapiens, UniProt Q13489)
GUK1: GUK1 (Homo sapiens, UniProt Q16774)

O=S(=O)(O)SSS(=O)(=O)O
thermal shift (Uncharacterized protein (Pelagibacter ubique, UniProt Q4FKX4); differential scanning fluorimetry; Candidatus Pelagibacter ubique; in-house screen): 14.6 °C

Nc1ccc2cc3ccc(N)cc3nc2c1
binding Gibbs energy (Chymotrypsinogen A, activated (alpha-chymotrypsin) (Bos taurus, UniProt P00766); isothermal titration calorimetry; pH 7.4, 25 °C): -5.951 ± 0.0239 kcal/mol

Nc1ccn([C@H]2C[C@H](O)[C@@H](COP(=O)(O)OP(=O)(O)OP(=O)(O)O)O2)c(=O)n1
Km (Gag-Pol polyprotein, reverse transcriptase (gag-pol, Human immunodeficiency virus type 1 group M subtype B, UniProt P04585); nucleotide incorporation, substrate; HIV-1; added: DNA template): 0.025 µM

O=C1CC(C(=O)O)NC(=O)N1 (stereo not drawn)
flavin reduction rate (Dihydroorotate dehydrogenase A (fumarate) (pyrDA, Lactococcus lactis subsp. cremoris, UniProt A2RJT9); substrate, stopped-flow; concentration not given, pH 8.5, 4 °C, wild-type enzyme): 170 ± 12 s⁻¹

COc1ccc(C(=O)COc2ccc(N3C(=O)[C@@H]4[C@@H]5C=C[C@@H]([C@H]6C[C@@H]56)[C@@H]4C3=O)cc2)cc1
8,9-dehydrocholesterol level (3-beta-hydroxysteroid-Delta(8),Delta(7)-isomerase (Mus musculus, UniProt P70245); Mut6; concentration not given, 24 h): no effect

CC(=C/C(=O)O)/C=C/C=C(\C)C1C=C2C(C)(C)CCCC2(C)O1 (stereo not drawn)
Pearson correlation coefficient (Rhodopsin (RHO, Homo sapiens, UniProt P08100, T17M); ER retention, immunostaining co-localization, item: opsin with calnexin; COS-7 transfected T17M; 20.00 µM): 0.5

Nc1ncnc2c1ncn2[C@@H]1O[C@H](COP(=O)(O)OP(=O)(O)OP(=O)(O)O)[C@@H](O)[C@H]1O
Km (Hexokinase-3 (HK3, Homo sapiens, UniProt P52790, R807A); substrate; mutant R807A, added: glucose 0.5 mM): 2200 ± 400 µM

CCNC(=O)/C=C/c1cccc(Br)c1
remaining transport activity (Sodium-dependent neutral amino acid transporter B(0)AT1 (SLC6A19, Homo sapiens, UniProt Q695T7); inhibitor, L-[14C]leucine uptake; CHO-BC cells; 0.003 µM, 6 min, unit not given, added: GPNA 3 mM, JPH203 3 µM; baseline: uninhibited cells): 0.975

Cc1ccccc1C1CC(=O)c2c(C)nc(N)nc2C1 (stereo not drawn)
fold enrichment (RFWD3 (Homo sapiens, UniProt Q6PCD5); binding, affinity selection mass spectrometry; baseline: other proteins in batch): 0.895

CN(CCCCNC(=O)c1cc2ccccc2[nH]1)[C@@H]1Cc2cccc3[nH]c(=O)n(c23)C1
Hill slope (HTR2A; binding; added: [3H]5-HT): -1.06 ± 0.18

Clc1cncc(OC[C@H]2CN(CCN3CCc4ccccc43)CCO2)c1
inhibition (HTR7; radioligand binding; concentration not given, added: [3H]LSD): 42.4%

CC1=C(/C=C/C(C)=C/C=C/C(C)=C/C=O)C(C)(C)CCC1
relative kon (Rhodopsin, G270S/S144C (RHO, Bos taurus, UniProt P02699, G270S/S144F); retinal entry, Alexa488 FRET; lipid bicelles; 28 °C, G270S mutant; baseline: wild-type rhodopsin): 1.08 ± 0.27

O=C(CN1CCO[C@H](COc2cccc(Cl)c2)C1)N1CCc2ccccc21
inhibition (HTR2A; radioligand binding; concentration not given, added: [3H]ketanserin): 60%

NCCCS(=O)(=O)O
fraction bound (Sodium- and chloride-dependent taurine transporter (SLC6A6, Homo sapiens, UniProt P31641, Y138A); binding, microscale thermophoresis; 40.3 nM, fitted curve; higher = more binding): 0.000365

O=C(O)c1ccc(Nc2ncc3c(n2)-c2ccc(Cl)cc2C(c2c(F)cccc2F)=NC3)cc1
remaining activity (Flt4(h); kinase activity; 1 µM): 6%

CN(C)C(=O)C(CCN1CCC(O)(c2ccc(Cl)cc2)CC1)(c1ccccc1)c1ccccc1
Hill coefficient (Calcium-activated potassium channel subunit alpha-1, with LRRC26 γ1 subunit (KCNMA1, Homo sapiens, UniProt Q12791); BK channel conductance, inside-out patch clamp; BKα/γ1, Vm 60 mV, nominally Ca2+-free): 0.716 ± 0.08

CCS(=O)(=O)N1CC(CC#N)(n2cc(-c3ncnc4[nH]ccc34)cn2)C1
change in binding constant (Alpha-1-acid glycoprotein 1 (ORM1, Homo sapiens, UniProt P02763); added: K^+): -28.3%

O=C(N/N=C/c1cc(Br)ccc1O)c1cc2ccccc2cc1O
activity (Estrogen receptor beta (ESR2, Homo sapiens, UniProt Q92731); PGC-1α coactivator displacement, inhibitor, TR-FRET; up to 100 µM, added: estradiol): inactive

COc1cc2c(cc1OC)C(=O)N(CCCCN1CCN(c3ccccc3OC)CC1)C2
inhibition (5-hydroxytryptamine receptor 2C (HTR2C, Homo sapiens, UniProt P28335); radioligand binding; concentration not given, added: [3H]mesulergine): 91.3%

O=c1nc(SCc2ccc(C(F)(F)F)cc2)nc(SCc2csc3ccc(Cl)cc23)[nH]1
decatenated DNA (DNA topoisomerase 2-alpha (TOP2A, Homo sapiens, UniProt P11388); decatenation; 0.49 µM, replicate 2): 0%

CN1CCN(c2cc(-c3ccncc3)c(-c3ccc4ccccc4c3)nn2)CC1
activation (Lysophosphatidic acid receptor 1 (LPAR1, Homo sapiens, UniProt Q92633); agonist, FLIPR; 12.5 µM): -1%

C[C@]12C[C@H](O)[C@H]3[C@@H](CCC4=CC(=O)CC[C@@]43C)[C@@H]1CC[C@@H]2C(=O)CO
18-hydroxylation product formation rate (Cytochrome P450 11B2, mitochondrial (CYP11B2, Homo sapiens, UniProt P19099); substrate; 100 µM, 37 °C, phospholipid vesicles): 12.2 ± 1 min⁻¹

COc1cc(F)ccc1-c1ncnc(Nc2cccc(C[S@](C)(=N)=O)c2)n1
remaining activity (NEK6; kinase activity; 10 µM, added: 10 µM ATP): 107%

Oc1ccc(/C=C/c2cc(O)cc(O)c2)cc1
binding stoichiometry (O-methyltransferase (Sorghum bicolor, UniProt A0A1B6PFV1); ITC; concentration not given, endothermic site, two-site model, added: SFG): 0.39

Cc1n[nH]c2ccc(-c3cc(OC[C@@H](N)Cc4ccccc4)cnc3-c3ccoc3)cc12
log2 fold change (Protein kinase C-like 1 (Candida albicans, UniProt P43057); kinase binding, competitor, MIB/MS competition, item: PKC1; Candida albicans cell lysate; 100 nM; baseline: DMSO): -0.235

Cc1cccc(N2CC(C(=O)O)CC2=O)c1 (stereo not drawn)
log fold enrichment (BIRC3 BIR1 domain; binding, affinity selection mass spectrometry; baseline: other proteins in batch): -0.0061

Nc1ccc(C(=O)O)cc1
current density (BEST1, with wild-type BEST1 (Homo sapiens, UniProt O76090, L234P); ion current, whole-cell patch clamp; HEK293 co-expressing mutant and wild-type; concentration not given, voltage -60 mV): -12.6 pA/pF and -15.7 pA/pF and -4.93 pA/pF and -9.08 pA/pF and -8.47 pA/pF and -31.9 pA/pF

CCOc1ccc(NC(=O)O[C@H](Cn2nc(C(C)C)cc2C(C)C)C(C)C)cc1
ACh-evoked current (Neuronal acetylcholine receptor; alpha4/beta2, (α4)2(β2)3 stoichiometry (Homo sapiens, UniProt P17787+P43681); two-electrode voltage clamp; Xenopus oocytes; 3 µM, high-sensitivity stoichiometry, added: ACh 10 µM; baseline: ACh alone): 86 ± 10%

O=C(COP(=O)(O)O)[C@@H](O)[C@H](O)[C@H](O)COP(=O)(O)O
thermal stability ratio (Long-chain-fatty-acid--CoA ligase 5 (Homo sapiens, UniProt Q9ULC5); thermal proteome profiling, item: ACSL5; HepG2 cell lysate; concentration not given, 57 over 37 °C, mean; baseline: compound over control): 0.699

Cc1ccc(N2CC(C(N)=O)CC2=O)cc1 (stereo not drawn)
fold enrichment (Histone acetyltransferase type B catalytic subunit (Homo sapiens, UniProt O14929); binding, affinity selection mass spectrometry; baseline: other proteins in batch): 0.889

Nc1ncnc2c1ncn2[C@@H]1O[C@H](CO[P@](=O)(O)O[P@](=O)(O)O[P@@](=O)(O)S)[C@@H](O)[C@H]1O
ΔH (GUK1; ITC; molar ratio 0.6998): -1.29 kcal/mol

COCCC(=O)N1CCC(Oc2ccccc2)C1 (stereo not drawn)
fold enrichment (E3 ubiquitin-protein ligase CHIP (STUB1, Homo sapiens, UniProt Q9UNE7); binding, affinity selection mass spectrometry; baseline: other proteins in batch): 0.769

Nc1ncnc2c1ncn2[C@@H]1O[C@H](COP(=O)(O)OP(=O)(O)OP(=O)(O)O)[C@@H](O)[C@H]1O
normalized current (P2X purinoceptor 7 (P2rx7, Rattus norvegicus, UniProt Q64663, I214A/Q143A/R125A); ion current, agonist, two-electrode voltage clamp; Xenopus oocytes; 1.23 µM): 0.00184 and 0

COc1ccc2c(c1)C(=O)N(CCCN1CCN(c3ccccc3OC)CC1)C2
inhibition (HTR2A; radioligand binding; concentration not given, added: [3H]ketanserin): 73%

CC(C)=CCC/C(C)=C/C=C/C(C)=C/C=C/C(C)=C/C=C/C=C(C)/C=C/C=C(C)/C=C/C=C(\C)CCC=C(C)C
number of binding sites (Beta-lactoglobulin (LGB, Bos taurus, UniProt P02754); fluorescence quenching; concentration not given, 308 K): 1.28

NCC(=O)O
charge coupling (Sodium- and chloride-dependent neutral and basic amino acid transporter B(0+) (Slc6a14, Mus musculus, UniProt Q9JMA9); transport, current and [14C] uptake; Xenopus oocytes): 2.08 charges per glycine

O=[N+]([O-])c1ccc(O[C@@H]2O[C@H](CO)[C@@H](O)[C@H](O)[C@H]2O)cc1
Km (bglA (Thermotoga maritima, UniProt Q08638); hydrolysis, substrate; pH 6.8, 37 °C): 570 ± 80 µM

[H]/N=C(/N)NCC(=O)O
normalised MST signal (Sodium- and chloride-dependent taurine transporter (SLC6A6, Homo sapiens, UniProt P31641, G62A); binding, microscale thermophoresis; 977 nM, room temperature, added: 50 nM labelled protein; higher = more binding): -0.00487

CCC1(O)CCCN(C(=O)c2ccc(-c3ccc(F)c(NC(=O)CCl)c3)cc2)C1 (stereo not drawn)
protein adduct (DNA dC->dU-editing enzyme APOBEC-3A (Homo sapiens, UniProt P31941); covalent modifier, intact protein mass spectrometry, item: adduct +26309 Da; 500 µM, 3 h, 20-fold molar excess): 47%

Nc1ncnc2c1ncn2[C@@H]1O[C@H](COP(=O)(O)CP(=O)(O)OP(=O)(O)O)[C@@H](O)[C@H]1O
calcium influx (P2X purinoceptor 1 (P2RX1, Homo sapiens, UniProt P51575, E282A); calcium influx; 10 nM; baseline: ionomycin response): 0% and 8.62%

CCN(CCO)CCCC(C)Nc1ccnc2cc(Cl)ccc12 (stereo not drawn)
inactivation V1/2 (Sodium channel protein type 5 subunit alpha (SCN5A, Homo sapiens, UniProt Q14524); sodium current; 300 µM): -90.5 ± 4.4 mV

Nc1nc2c(ncn2[C@@H]2O[C@H](COP(=O)(O)O)[C@@H](O)[C@H]2O)c(=O)[nH]1
reaction velocity (GUK1; enzyme activity, NADH-coupled; 15.62 µM, added: KCl 50 mM): 0.0508 µM/s and 0.0413 µM/s and 0.0388 µM/s

CC(C)[C@H](NC(=O)c1cc(-c2cnn3cc(-c4ccc(OCCN5CCCCC5)cc4)cnc23)cs1)C(F)(F)F
relative inhibition (RSK4 (human); radiometric kinase; 15 nM; baseline: RSK4 over ULK1): 0

O=C1c2ccccc2CCN1CCCCN1CCN(c2ccccn2)CC1
inhibition (HTR7; radioligand binding; concentration not given, added: [3H]LSD): 93.3%

C=CC(=O)N1CCC(COCC(=O)N2CCN(c3nc(-c4cnc(N)nc4C(F)F)nc(N4CCOC[C@@H]4C)n3)CC2)CC1
remaining binding (Beta-adrenergic receptor kinase 1 (GRK2, Homo sapiens, UniProt P25098); KINOMEscan; 1 µM): 100%

CC1(C)CC2(C)OC(=O)NC2(C)c2ccccc21 (stereo not drawn)
fold enrichment (BIRC3 BIR1 domain; binding, affinity selection mass spectrometry; baseline: other proteins in batch): 0.918

O=C(O)CSc1nc(SCC(=O)O)nc(-c2ccc(N3CCOCC3)cc2)n1
ligand efficiency (Stromal cell-derived factor 1 (CXCL12, Homo sapiens, UniProt P48061)): 0.17

Cc1cc(Nc2cc(N3CCN(C)CC3)nc(Sc3ccc(NC(=O)C4CC4)cc3)n2)[nH]n1
remaining activity (NEK6; kinase activity, KinaseProfiler; 0.03 µM, species human; baseline: control): 105%

A few entries again:
O=C(COP(=O)(O)O)[C@@H](O)[C@H](O)[C@H](O)COP(=O)(O)O
thermal stability ratio (Long-chain-fatty-acid--CoA ligase 5 (Homo sapiens, UniProt Q9ULC5); thermal proteome profiling, item: ACSL5; HepG2 cell lysate; concentration not given, 57 over 37 °C, mean; baseline: compound over control): 0.699

NCCCS(=O)(=O)O
fraction bound (Sodium- and chloride-dependent taurine transporter (SLC6A6, Homo sapiens, UniProt P31641, Y138A); binding, microscale thermophoresis; 40.3 nM, fitted curve; higher = more binding): 0.000365

Nc1ncnc2c1ncn2[C@@H]1O[C@H](COP(=O)(O)CP(=O)(O)OP(=O)(O)O)[C@@H](O)[C@H]1O
calcium influx (P2X purinoceptor 1 (P2RX1, Homo sapiens, UniProt P51575, E282A); calcium influx; 10 nM; baseline: ionomycin response): 0% and 8.62%

C=CC(=O)N1CCC(COCC(=O)N2CCN(c3nc(-c4cnc(N)nc4C(F)F)nc(N4CCOC[C@@H]4C)n3)CC2)CC1
remaining binding (Beta-adrenergic receptor kinase 1 (GRK2, Homo sapiens, UniProt P25098); KINOMEscan; 1 µM): 100%

CCN(CCO)CCCC(C)Nc1ccnc2cc(Cl)ccc12 (stereo not drawn)
inactivation V1/2 (Sodium channel protein type 5 subunit alpha (SCN5A, Homo sapiens, UniProt Q14524); sodium current; 300 µM): -90.5 ± 4.4 mV

COCCC(=O)N1CCC(Oc2ccccc2)C1 (stereo not drawn)
fold enrichment (E3 ubiquitin-protein ligase CHIP (STUB1, Homo sapiens, UniProt Q9UNE7); binding, affinity selection mass spectrometry; baseline: other proteins in batch): 0.769

Cc1n[nH]c2ccc(-c3cc(OC[C@@H](N)Cc4ccccc4)cnc3-c3ccoc3)cc12
log2 fold change (Protein kinase C-like 1 (Candida albicans, UniProt P43057); kinase binding, competitor, MIB/MS competition, item: PKC1; Candida albicans cell lysate; 100 nM; baseline: DMSO): -0.235
